Experimental data pooled from the literature.
Each line is one published result; not all experiments were run side by side. Numbers after ± are the reported error.
NTSR1: Neurotensin receptor type 1 (NTSR1, Homo sapiens, UniProt P30989)
Sequence of UniProt P30989 (whole entry, looked up): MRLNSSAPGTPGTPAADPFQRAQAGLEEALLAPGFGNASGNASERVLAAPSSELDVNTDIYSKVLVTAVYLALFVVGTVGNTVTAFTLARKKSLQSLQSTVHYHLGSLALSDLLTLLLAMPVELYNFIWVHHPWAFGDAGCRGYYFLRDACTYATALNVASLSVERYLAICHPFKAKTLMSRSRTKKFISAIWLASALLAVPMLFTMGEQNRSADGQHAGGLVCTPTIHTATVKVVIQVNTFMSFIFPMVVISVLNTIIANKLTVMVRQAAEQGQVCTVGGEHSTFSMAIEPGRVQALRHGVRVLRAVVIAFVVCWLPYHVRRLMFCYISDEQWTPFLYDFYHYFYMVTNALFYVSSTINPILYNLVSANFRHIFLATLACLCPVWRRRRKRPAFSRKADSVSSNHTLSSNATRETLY
CHRM5: Muscarinic acetylcholine receptor M5 (CHRM5, Homo sapiens, UniProt P08912)
Sequence of UniProt P08912 (whole entry, looked up): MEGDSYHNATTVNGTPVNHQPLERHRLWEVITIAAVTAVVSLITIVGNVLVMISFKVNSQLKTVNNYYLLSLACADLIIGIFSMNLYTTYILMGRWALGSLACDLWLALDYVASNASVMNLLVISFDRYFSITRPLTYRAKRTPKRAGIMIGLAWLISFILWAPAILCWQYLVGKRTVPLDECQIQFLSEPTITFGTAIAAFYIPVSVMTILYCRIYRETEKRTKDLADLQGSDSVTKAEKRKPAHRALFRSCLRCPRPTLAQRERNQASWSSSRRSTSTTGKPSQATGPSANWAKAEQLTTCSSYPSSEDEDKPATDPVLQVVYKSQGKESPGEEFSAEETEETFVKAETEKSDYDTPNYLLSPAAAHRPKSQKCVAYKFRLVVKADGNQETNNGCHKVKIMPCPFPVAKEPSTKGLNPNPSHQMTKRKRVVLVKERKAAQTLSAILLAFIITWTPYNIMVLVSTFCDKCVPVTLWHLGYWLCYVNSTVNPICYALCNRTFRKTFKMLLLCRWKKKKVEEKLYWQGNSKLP
TDP1: Tyrosyl-DNA phosphodiesterase 1 (TDP1, Homo sapiens, UniProt Q9NUW8)
Sequence of UniProt Q9NUW8 (whole entry, looked up): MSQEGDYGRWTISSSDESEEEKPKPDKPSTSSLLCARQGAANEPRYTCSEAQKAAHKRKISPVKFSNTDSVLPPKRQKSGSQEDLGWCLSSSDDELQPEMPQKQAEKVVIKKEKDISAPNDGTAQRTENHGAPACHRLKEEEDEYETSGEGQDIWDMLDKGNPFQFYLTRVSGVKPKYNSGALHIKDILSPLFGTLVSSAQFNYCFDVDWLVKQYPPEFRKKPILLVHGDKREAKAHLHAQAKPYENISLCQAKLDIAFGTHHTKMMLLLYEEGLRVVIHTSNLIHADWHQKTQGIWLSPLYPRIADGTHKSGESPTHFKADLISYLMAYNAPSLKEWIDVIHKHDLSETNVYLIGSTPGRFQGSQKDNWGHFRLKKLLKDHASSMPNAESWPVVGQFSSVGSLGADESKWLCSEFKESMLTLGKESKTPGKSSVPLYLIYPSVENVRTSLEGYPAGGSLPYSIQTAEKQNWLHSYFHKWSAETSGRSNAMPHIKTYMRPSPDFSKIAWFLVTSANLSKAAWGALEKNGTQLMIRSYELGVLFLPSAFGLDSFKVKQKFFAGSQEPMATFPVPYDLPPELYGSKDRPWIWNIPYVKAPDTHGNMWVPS
Sequence of UniProt Q9UKP6 (whole entry, looked up): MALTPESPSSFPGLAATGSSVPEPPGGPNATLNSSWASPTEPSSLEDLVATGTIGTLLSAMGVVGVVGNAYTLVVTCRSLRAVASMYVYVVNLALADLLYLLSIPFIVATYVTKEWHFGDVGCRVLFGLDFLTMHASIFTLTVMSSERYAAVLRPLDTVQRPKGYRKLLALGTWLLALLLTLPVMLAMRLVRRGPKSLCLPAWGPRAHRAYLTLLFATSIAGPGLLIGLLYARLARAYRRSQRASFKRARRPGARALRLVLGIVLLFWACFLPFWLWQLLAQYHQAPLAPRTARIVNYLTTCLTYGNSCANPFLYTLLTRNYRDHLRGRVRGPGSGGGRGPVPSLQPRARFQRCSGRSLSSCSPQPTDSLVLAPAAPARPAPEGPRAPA
Sequence of UniProt P25103 (whole entry, unmodified, looked up): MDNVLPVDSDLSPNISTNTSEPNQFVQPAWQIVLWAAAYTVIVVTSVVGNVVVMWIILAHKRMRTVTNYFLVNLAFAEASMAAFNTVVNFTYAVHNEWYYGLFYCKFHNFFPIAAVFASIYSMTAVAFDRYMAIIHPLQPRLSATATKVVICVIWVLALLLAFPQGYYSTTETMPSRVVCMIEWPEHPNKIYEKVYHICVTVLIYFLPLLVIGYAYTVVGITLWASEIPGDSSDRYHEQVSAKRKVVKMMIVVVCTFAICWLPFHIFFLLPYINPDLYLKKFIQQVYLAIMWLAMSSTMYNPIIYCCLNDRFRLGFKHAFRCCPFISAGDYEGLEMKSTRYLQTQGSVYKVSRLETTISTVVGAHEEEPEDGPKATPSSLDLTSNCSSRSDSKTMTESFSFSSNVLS
Sequence of UniProt Q969F8 (whole entry, looked up): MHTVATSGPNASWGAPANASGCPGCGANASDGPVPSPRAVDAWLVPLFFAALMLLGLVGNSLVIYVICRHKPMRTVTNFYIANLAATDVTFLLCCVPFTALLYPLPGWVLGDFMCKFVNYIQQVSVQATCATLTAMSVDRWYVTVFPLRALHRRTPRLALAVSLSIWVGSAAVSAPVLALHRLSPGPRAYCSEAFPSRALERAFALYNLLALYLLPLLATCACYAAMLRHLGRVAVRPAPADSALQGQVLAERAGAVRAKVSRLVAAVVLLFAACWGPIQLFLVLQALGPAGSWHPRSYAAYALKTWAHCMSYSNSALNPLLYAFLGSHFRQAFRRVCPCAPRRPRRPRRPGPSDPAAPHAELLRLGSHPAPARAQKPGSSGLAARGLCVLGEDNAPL
Sequence of UniProt P20309 (whole entry, looked up): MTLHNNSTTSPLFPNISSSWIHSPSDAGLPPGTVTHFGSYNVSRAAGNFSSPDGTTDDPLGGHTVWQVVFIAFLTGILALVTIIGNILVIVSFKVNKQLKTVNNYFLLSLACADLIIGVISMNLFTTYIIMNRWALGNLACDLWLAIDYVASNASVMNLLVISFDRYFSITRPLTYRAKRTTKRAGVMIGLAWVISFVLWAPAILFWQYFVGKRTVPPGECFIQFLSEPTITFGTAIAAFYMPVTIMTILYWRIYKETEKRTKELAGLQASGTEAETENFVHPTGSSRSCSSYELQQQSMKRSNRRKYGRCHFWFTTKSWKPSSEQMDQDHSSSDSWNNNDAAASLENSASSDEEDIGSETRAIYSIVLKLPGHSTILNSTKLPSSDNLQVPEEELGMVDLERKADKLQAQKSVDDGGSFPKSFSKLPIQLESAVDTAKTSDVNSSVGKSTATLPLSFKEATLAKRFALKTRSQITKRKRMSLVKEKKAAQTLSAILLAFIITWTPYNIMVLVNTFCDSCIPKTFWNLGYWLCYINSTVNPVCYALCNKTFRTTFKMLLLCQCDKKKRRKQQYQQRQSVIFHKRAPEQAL
Sequence of UniProt Q9NSD7 (whole entry, unmodified, looked up): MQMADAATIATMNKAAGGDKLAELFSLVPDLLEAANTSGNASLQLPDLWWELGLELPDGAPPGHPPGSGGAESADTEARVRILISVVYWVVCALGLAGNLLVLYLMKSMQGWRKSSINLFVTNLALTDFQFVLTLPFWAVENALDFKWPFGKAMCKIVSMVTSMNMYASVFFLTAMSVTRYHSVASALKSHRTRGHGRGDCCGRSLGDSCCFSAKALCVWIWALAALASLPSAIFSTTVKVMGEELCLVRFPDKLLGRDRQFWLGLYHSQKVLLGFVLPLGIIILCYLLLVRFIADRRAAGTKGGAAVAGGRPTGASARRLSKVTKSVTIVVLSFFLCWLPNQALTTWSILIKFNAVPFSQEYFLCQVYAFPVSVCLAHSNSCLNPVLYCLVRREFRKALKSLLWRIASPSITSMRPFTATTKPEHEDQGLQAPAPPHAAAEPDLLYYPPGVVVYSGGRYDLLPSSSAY

SMILES | target | assay | system | setting | how to read | quantity | result
COc1ccccc1C1CCN(c2nc(C3CCCC3)nc3ccc(N(C)CCO)cc23)CC1 | NTSR1 | β-arrestin recruitment, agonist | HEK-293T |  |  | Emax | 115%
CNC(=N)NCCC[C@H](NC(=O)[C@H](CC(C)C)NC(=O)NNC(=O)[C@H](Cc1ccccc1)NC(=O)[C@@H](NC(=O)[C@H](CC(N)=O)NC(=O)[C@@H]1C[C@@H](O)CN1C(=O)[C@@H](Cc1ccc(O)cc1)NC(C)=O)[C@@H](C)O)C(=O)N[C@@H](Cc1c[nH]c2ccccc12)C(N)=O | KiSS-1 receptor (KISS1R, Homo sapiens, UniProt Q969F8) | inositol phosphate, agonist, TR-FRET | HEK293 |  |  | Emax | 96.2%
CCCCOc1ccc(C(=O)OCC[N+]2(C)CC=CCC2)cc1 (centres unmarked) | CHRM5 |  | membranes | 10 µM, 15 h, with: carbachol | reference: control | Emax | 1.43 ± 0.09 fold
CCc1cc(O)cc2c(/C=N/NC(=N)NCCc3ccc(Cl)cc3)c[nH]c12 | RXFP3 (Homo sapiens, UniProt Q9NSD7, S163A) |  | HEK-293T |  | reference: wild type | Emax | 65.3 ± 6.13%
CSCC[C@H](NC(=O)[C@H](CC(C)C)NC(=O)CNC(=O)[C@H](Cc1ccccc1)NC(=O)[C@H](Cc1ccccc1)NC(=O)[C@@H](N)CCC(N)=O)C(N)=O | TACR1 (Homo sapiens, UniProt P25103, N85D) | agonist |  | concentration not given |  | Emax | 84 ± 6%
COc1ccccc1C1CCN(c2nc(C3(F)CC3)nc3cnc(N(C)CCO)cc23)CC1 | NTSR1 | β-arrestin recruitment, agonist | HEK-293T |  |  | Emax | 95.4%
O=C(O)c1ccc(Nc2c(-c3ccccc3)nc3ccc(CON=Cc4ccc(N5CCCC5=O)cc4)cn23)cc1 | TDP1 | enzyme activity, inhibitor |  | 100 µM, unpurified compound |  | inhibition | 45.5%
CC(C)[C@H](NC(=O)[C@@H]1CSSC(C)(C)[C@H](NC(=O)[C@@H](N)CC(=O)O)C(=O)N[C@@H](Cc2ccccc2)C(=O)N[C@H](Cc2c[nH]c3ccccc23)C(=O)N[C@@H](CCCN)C(=O)N[C@@H](Cc2ccc(O)cc2)C(=O)N1)C(=O)O | UTS2R (Homo sapiens, UniProt Q9UKP6) | β-arrestin recruitment, agonist | HEK293 |  |  | Emax | 14.9%
O=C(O)c1ccc(Nc2c(-c3ccccc3)nc3ccc(CON=Cc4ccc(-c5ccccc5)cc4)cn23)cc1 (mixture of isomers) | TDP1 | enzyme activity, inhibitor |  | 100 µM, unpurified compound |  | inhibition | -2.8%
CCCCCCOc1ccc(C(=O)OCCN2CC=CCC2)cc1 | CHRM3 (Homo sapiens, UniProt P20309) |  | membranes | 100 µM, 15 h, with: carbachol | reference: control | Emax | 1.27 ± 0.05 fold
C=CCn1c(=O)c2ccccc2n2c(SC(C(=O)OCC)c3ccccc3)nnc12 (centres unmarked) | CHRM5 | receptor activation, agonist |  | concentration not given, 16 h |  | Emax | 133 ± 6%
